Measurements of several laboratories.
Compare with care: the assays were run in different laboratories. ± gives the spread as reported.

| Compound | cell line | assay | setting | IC50 |
| --- | --- | --- | --- | --- |
| O=C1C(Br)=C(Br)C(=O)c2ccccc21 | MOLT-3 | cell growth or viability, XTT |  | 3290 nM |
| CC(C)c1ccc(N(C)c2ccc3c(c2)OCC[C@H]3CNc2cnccc2C(=O)O)cc1 | 647-V | cell growth or viability, ATP luminescence | 7 days | 12.2 nM |
| COc1ccccc1/C=C1\C(=O)N(C)c2ccc(N(C)c3nc(C)nc4ccccc34)cc21 | H22 | cell growth or viability, MTT |  | 2920 nM |
| O=C1NCCC12CCN(c1c(Cl)cncc1-c1ccc(N3CCOCC3)cc1)CC2 | 7dF3 | WNT reporter gene, inhibitor |  | 30 ± 17 nM |
| Cc1sc2c(c1C)C(c1ccc(Cl)cc1)=N[C@@H](CC(=O)NCCN(C)CCCCNC(=O)CCCCOc1cccc3c1C(=O)N([C@H]1CCC(=O)NC1=O)C3=O)c1nnc(C)n1-2 | MDA-MB-453 | cell growth or viability, CCK-8 | 72 h | 700 nM |
| CCOc1cncc(-c2ccc(NC(=O)C3(c4ccnc(NS(=O)(=O)C5CC5)n4)CCOCC3)nc2)n1 | OCI-AML2 | cell proliferation, CellTiter-Glo | 72 h | 62 nM |
| O=C1C2=Nc3ccccc3CN2C(=S)N1c1ccc([N+](=O)[O-])cc1 | CCRF-CEM | resazurin | 72 h | 27800 ± 2600 nM |
| O=C(CCCCCONC(=O)c1nc(-c2ccc(N3CCCC3)cc2)cs1)NO | neonatal foreskin fibroblasts | cytotoxicity, sulforhodamine B | 72 h | 650 nM |
| Cc1nc(Nc2ccc3c(c2)/C(=C/c2ccccc2Cl)C(=O)N3C)c2ccccc2n1 | H22 | cell growth or viability, MTT |  | 3210 nM |
| CCNC(NN=Cc1ccc([N+](=O)[O-])o1)=[S+][Au-][Cl] | IMR-90 | cell growth or viability, resazurin |  | > 100000 nM |
| Cn1ncc(-c2ccc3c(=O)[nH]nc(CN)c3c2)c1-c1c(F)c(Cl)cc(OC2CC2)c1C#N | SF-268 | cell viability, inhibitor, CellTiter-Glo | 120 h, baseline-subtracted | 70 nM |
| COc1ccc(CC[C@H]2OC(=O)[C@@H]3CCCCN3C(=O)C(=O)C(C)(C)COC(=O)C=CCCN(C)C(=O)[C@H](CC(C)C)N(C)C(=O)[C@H]3CCCN3C(=O)[C@H](Cc3cccc4ccccc34)NC(=O)[C@H](c3ccccc3)NC(=O)CCC(=O)Nc3cccc2c3)cc1OC | HUVEC | thymidine uptake, inhibitor |  | 88 ± 25 nM |
| COc1ccnc(-c2cc(OC)ccn2)c1.Cc1ccc2c(Cl)cc(Cl)c([O-])c2n1.Cc1ccc2c(Cl)cc(Cl)c([O-])c2n1.[Co+2] | HL-7702 normal hepatocytes | cell viability, MTT | 48 h | 70240 ± 630 nM |
| O=C1/C(=N\c2ccc(Cl)cc2)c2ccccc2N1Cc1ccccc1 | L02 | cell growth or viability, MTT | 48 h | 46900 nM |
| COc1ccc(CC[C@H]2OC(=O)[C@@H]3CCCCN3C(=O)C(=O)C(C)(C)COC(=O)C=CCCN(C)C(=O)[C@H](CC(C)C)N(C)C(=O)[C@H]3CCCN3C(=O)[C@H](Cc3ccccc3)N(C)C(=O)[C@H](CC3CCCCC3)NC(=O)CCC(=O)Nc3cccc2c3)cc1OC | HUVEC | thymidine uptake, inhibitor |  | 112 ± 28 nM |
| COC(=O)N1c2ccc3c(nc(Cc4ccccc4)n3[C@@H]3CCC[C@@H](C(=O)O)C3)c2CC[C@@H]1C | JIMT-1 | cell growth or viability, ATP luminescence | 10 days | 3290 nM |
| C[OH+][Cu-2]12[O]C(c3cn(-c4ccccc4)nc3-c3ccccc3)=N[N+]1=C(C)c1c(cc(C)oc1=O)[O]2 (stereo not shown) | Vero | cell growth or viability, MTT | 48 h | 59400 nM |
| N#Cc1c(N)nc2c(c1-c1ccc(CO)o1)CCc1cc(O)ccc1-2 | MOLT-4 | cell growth or viability, ATP luminescence |  | 3200 nM |
| COC[C@H](C)N1C(=O)C2=Nc3ccccc3CN2C1=S | CCRF-CEM | cell growth or viability, resazurin | 72 h | 11200 nM |
| CN1CCC(N[C@@H]2CCc3[nH]c4c(C(N)=O)ccc(-c5ccccc5Cl)c4c3C2)CC1 | HGC-27 | cell growth or viability |  | 2.18 nM |
| Cc1cnc2nc1Nc1cccc(c1)COC/C=C/COCc1cc(ccc1OCCN1CCCCC1)N2 | HEL 92.1.7 JAK2 V617F | cell growth, CCK-8 |  | 1450 nM |
| CC(C)CCC[C@@H](C)[C@H]1CC[C@H]2[C@@H]3CC=C4C[C@@H](OC(=O)NCCCN(C)CCCN5c6ccc(Cl)cc6N=C(N6CCN(C)CC6)c6ccccc65)CC[C@]4(C)[C@H]3CC[C@]12C | ARPE-19 | cytotoxicity, CCK-8 | 48 h | > 100000 nM |

| Compound | cell line | assay | setting | IC50 |
| --- | --- | --- | --- | --- |
| Cc1ccc([N+](=O)[O-])cc1S(=O)(=O)N(C)/N=C/c1cnc2ccc(Br)cn12 | SF-268 | MTS | NCI60 panel | 2230 nM |
| CC[C@H](C)[C@H](NC(=O)[C@H](CCCCN)NC(=O)[C@H](Cc1ccccc1)NC(=O)[C@H]1CCC[C@@H]1NC(=O)CN)C(=O)N[C@H](CC(=O)N[C@@H](CCCCN)C(=O)N[C@@H](CCCCN)C(=O)N[C@H]1CCC[C@@H]1C(=O)N[C@@H](C)C(=O)N[C@@H](CCCCN)C(=O)N[C@@H](CO)C(=O)N[C@H](CC(N)=O)Cc1ccccc1)[C@@H](C)CC | HUVEC | cytotoxicity |  | 94.8 µg/mL |
| COc1ccc(CC[C@H]2OC(=O)[C@@H]3CCCCN3C(=O)C(=O)C(C)(C)COC(=O)C=CCCN(C)C(=O)[C@H](CC(C)C)N(C)C(=O)[C@H]3CCCN3C(=O)[C@H](C)N(C)C(=O)[C@H](Cc3ccccc3)NC(=O)CCC(=O)Nc3cccc2c3)cc1OC | HUVEC | thymidine uptake, inhibitor |  | > 20000 nM |
| [Co+2].[O-]c1c(I)cc(I)c2cccnc12.[O-]c1c(I)cc(I)c2cccnc12.c1cnc2c(c1)ccc1cccnc12 | HL-7702 normal hepatocytes | cell viability, MTT | 48 h | 55000 ± 1740 nM |
| C[C@H](c1ccccc1)N1C(=O)C2=Nc3ccccc3CN2C1=S | CCRF-CEM | resazurin | 72 h | 520 ± 10 nM |
| O=c1c2ccccc2[se]n1CCCCCCn1[se]c2ccccc2c1=O | H22 | cell growth or viability | 5 days | 1510 nM |
| COc1ccc(CN2C3(NC(c4ccc(OC)cc4)C24C(=O)Nc2ccccc24)C(=O)Nc2ccccc23)cc1 (stereo not shown) | L02 | cell growth or viability, MTT | 48 h | > 100000 nM |
| CC(C)C[C@H](NC(=O)CN)C(=O)N[C@H]1CCC[C@@H]1C(=O)N[C@@H](CCCCN)C(=O)N[C@@H](CC(C)C)C(=O)N[C@@H](C)CC(=O)N[C@@H](CCCCN)C(=O)N[C@@H](CCCCN)C(=O)N[C@H]1CCC[C@@H]1C(=O)N[C@@H](CC(C)C)C(=O)N[C@@H](CCCCN)C(=O)N[C@@H](CO)CC(=O)N[C@@H](Cc1ccccc1)C(N)=O | HUVEC | cytotoxicity |  | 306 µg/mL |
| COc1ccc(CC[C@H]2OC(=O)[C@@H]3CCCCN3C(=O)C(=O)C(C)(C)COC(=O)C=CCCN(C)C(=O)[C@H](Cc3ccccc3)NC(=O)[C@H](Cc3ccccc3)N(C)C(=O)[C@H]3CCCN3C(=O)[C@H](CC(C)C)N(C)C(=O)CCC(=O)Nc3cccc2c3)cc1OC | HUVEC | thymidine uptake, inhibitor |  | > 20000 nM |
| Cc1ccc2c(Br)cc(Br)c([O-])c2n1.Cc1ccc2c(Br)cc(Br)c([O-])c2n1.[Co+2].c1ccc(-c2ccccn2)nc1 | HL-7702 normal hepatocytes | cell viability, MTT | 48 h | 85020 ± 450 nM |
| COc1cc(C(=O)N/N=C/c2cccc3ccccc23)cc(OC)c1OC | REH | cell growth or viability, MTT | 48 h | 92.6 nM |
| O=C(CCCCCONC(=O)c1nc(-c2ccc(Br)cc2)cs1)NO | neonatal foreskin fibroblasts | cytotoxicity, sulforhodamine B | 72 h | 1110 nM |
| C[C@@H](c1cccc2ccccc12)N1C(=O)C2=Nc3ccccc3CN2C1=S | CCRF-CEM | resazurin | 72 h | 190 ± 40 nM |
| COc1ccc(CC[C@H]2OC(=O)[C@@H]3CCCCN3C(=O)C(=O)C(C)(C)COC(=O)C=CCCN(C)C(=O)[C@H](CC(C)C)N(C)C(=O)[C@H]3CCCN3C(=O)[C@H](CC3CCCCC3)NC(=O)[C@H](c3ccccc3)NC(=O)CCC(=O)Nc3cccc2c3)cc1OC | HUVEC | thymidine uptake, inhibitor |  | 199 ± 42 nM |
| O=C1C(Nc2ccc(Cl)cc2)c2ccccc2N1Cc1ccccc1 (stereo not shown) | L02 | cell growth or viability, MTT | 48 h | 81500 nM |
| COc1ccc(CC[C@H]2OC(=O)[C@@H]3CCCCN3C(=O)C(=O)C(C)(C)COC(=O)C=CCCN(C)C(=O)CNC(=O)[C@@H](Cc3ccccc3)N(C)C(=O)[C@@H]3CCCN3C(=O)[C@H](CC(C)C)N(C)C(=O)CCC(=O)Nc3cccc2c3)cc1OC | HUVEC | thymidine uptake, inhibitor |  | 751 ± 139 nM |
| CC[C@H](C)[C@H](NC(=O)C[C@H](CCCCN)NC(=O)[C@H](Cc1ccccc1)NC(=O)C[C@H](CC(C)C)NC(=O)CN)C(=O)N[C@H](C(=O)N[C@@H](CCCCN)CC(=O)N[C@@H](CCCCN)C(=O)N[C@H](CC(=O)N[C@@H](C)C(=O)N[C@@H](CCCCN)CC(=O)N[C@@H](CO)C(=O)N[C@@H](Cc1ccccc1)C(N)=O)[C@@H](C)CC)[C@@H](C)CC | HUVEC | cytotoxicity |  | > 128 µg/mL |
| C=CC(=O)N1CCCC(n2c(=O)c3ncccc3n(Cc3ccc(Oc4ccccc4)cc3)c2=O)C1 (stereo not shown) | HC-1 | cell proliferation, MTT | 72 h | 2500 nM |
| CNS(=O)(=O)Nc1nccc(Cc2c(C)c3ccc(Oc4ncccc4F)cc3oc2=O)c1F | KMS-26 | cell viability | 7 days | 145 nM |
| COc1ccc(CC[C@H]2OC(=O)[C@@H]3CCCCN3C(=O)C(=O)C(C)(C)COC(=O)C=CCCN(C)C(=O)[C@@H](CC(C)C)N(C)C(=O)[C@@H]3CCCN3C(=O)[C@@H](Cc3ccccc3)N(C)C(=O)[C@H](Cc3ccccc3)NC(=O)CCC(=O)Nc3cccc2c3)cc1OC | HUVEC | thymidine uptake, inhibitor |  | > 20000 nM |
| CC(C)c1cccc(C(C)C)c1N1C(=O)C2=Nc3ccccc3CN2C1=S | CCRF-CEM | resazurin | 72 h | 25100 ± 6490 nM |

Some of these lines once more:
| Compound | cell line | assay | setting | IC50 |
| --- | --- | --- | --- | --- |
| COc1ccc(CC[C@H]2OC(=O)[C@@H]3CCCCN3C(=O)C(=O)C(C)(C)COC(=O)C=CCCN(C)C(=O)[C@H](Cc3ccccc3)NC(=O)[C@H](Cc3ccccc3)N(C)C(=O)[C@H]3CCCN3C(=O)[C@H](CC(C)C)N(C)C(=O)CCC(=O)Nc3cccc2c3)cc1OC | HUVEC | thymidine uptake, inhibitor |  | > 20000 nM |
| Cc1ccc([N+](=O)[O-])cc1S(=O)(=O)N(C)/N=C/c1cnc2ccc(Br)cn12 | SF-268 | MTS | NCI60 panel | 2230 nM |
| COc1cc(C(=O)N/N=C/c2cccc3ccccc23)cc(OC)c1OC | REH | cell growth or viability, MTT | 48 h | 92.6 nM |
| COc1ccc(CC[C@H]2OC(=O)[C@@H]3CCCCN3C(=O)C(=O)C(C)(C)COC(=O)C=CCCN(C)C(=O)[C@H](CC(C)C)N(C)C(=O)[C@H]3CCCN3C(=O)[C@H](CC3CCCCC3)NC(=O)[C@H](c3ccccc3)NC(=O)CCC(=O)Nc3cccc2c3)cc1OC | HUVEC | thymidine uptake, inhibitor |  | 199 ± 42 nM |
| COc1ccc(CC[C@H]2OC(=O)[C@@H]3CCCCN3C(=O)C(=O)C(C)(C)COC(=O)C=CCCN(C)C(=O)[C@H](CC(C)C)N(C)C(=O)[C@H]3CCCN3C(=O)[C@H](C)N(C)C(=O)[C@H](Cc3ccccc3)NC(=O)CCC(=O)Nc3cccc2c3)cc1OC | HUVEC | thymidine uptake, inhibitor |  | > 20000 nM |
| Cc1ccc2c(Br)cc(Br)c([O-])c2n1.Cc1ccc2c(Br)cc(Br)c([O-])c2n1.[Co+2].c1ccc(-c2ccccn2)nc1 | HL-7702 normal hepatocytes | cell viability, MTT | 48 h | 85020 ± 450 nM |
